Published values from different studies.
Each numbered part is a random draw from the data of one study; scales do not carry over between parts. Substitutions count along the parent as printed.

Set 1
Target: ABI1, truncated, D143A, DHFR fusion (Arabidopsis thaliana)
Technique: DHFR PCA, deep sequencing
Sample: yeast
Setting: methotrexate growth selection, single substitutions
With: (+)-ABA 1.4 µM
Relative to: wild-type fitted maximum
Direction: higher = stronger binding
Starting sequence: PYL1, truncated, DHFR fusion (Arabidopsis thaliana); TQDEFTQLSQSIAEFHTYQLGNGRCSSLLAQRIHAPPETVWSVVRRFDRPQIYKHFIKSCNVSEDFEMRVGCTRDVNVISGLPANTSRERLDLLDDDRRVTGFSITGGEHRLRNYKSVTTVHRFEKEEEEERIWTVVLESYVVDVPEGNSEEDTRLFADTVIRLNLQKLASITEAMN
Change	relative binding score [%]
S80A	1.38
V62M	26.7
I79P	-8.04
Y141Q	-13.5
D3E	47.7
K116E	1.64
T1S	58.5
S171R	60.5
I79E	14.3
E152N	27.9
T160H	20.2
N149I	21.1
F15M	16.4
V76Q	-11.9

Set 2
Target: Ras GTPase-activating protein-binding protein 1, full length (G3BP1, Homo sapiens, UniProt Q13283)
Sequence of UniProt Q13283 (whole entry, looked up): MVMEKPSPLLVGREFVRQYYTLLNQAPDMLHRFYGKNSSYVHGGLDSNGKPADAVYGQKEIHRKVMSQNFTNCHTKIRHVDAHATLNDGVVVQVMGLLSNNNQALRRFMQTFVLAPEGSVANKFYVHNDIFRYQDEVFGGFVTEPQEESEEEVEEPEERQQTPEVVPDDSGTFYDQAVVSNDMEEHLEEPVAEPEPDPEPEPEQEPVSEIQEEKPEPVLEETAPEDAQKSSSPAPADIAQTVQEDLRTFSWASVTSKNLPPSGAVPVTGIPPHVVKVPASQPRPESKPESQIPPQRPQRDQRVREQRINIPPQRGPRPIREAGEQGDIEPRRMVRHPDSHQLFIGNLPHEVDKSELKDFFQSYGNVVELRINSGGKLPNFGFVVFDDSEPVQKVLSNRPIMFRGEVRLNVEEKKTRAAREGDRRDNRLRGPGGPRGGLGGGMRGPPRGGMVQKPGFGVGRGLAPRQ
Technique: RNA Bind-n-Seq
Molecule type: RNA
Sample: in vitro
Concentration: 200 nM
Setting: whole 134-nt RNA, ends assumed
With: 150 mM KCl
Relative to: input library
Direction: higher = stronger binding
Sequence	log2 enrichment
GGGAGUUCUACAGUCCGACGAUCCUCAAGUCCUGUGCUACACAUCGUAUGUACCGAAUCGGAAAGGGAAAGGAAAGGAAAGUAUUAUGUUACGCCGUUCGGAUCUGCACUUCCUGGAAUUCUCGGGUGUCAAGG	-0.849
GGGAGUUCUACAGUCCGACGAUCGUCCUGUGCUACACAUCGUAUGUACCGAAUCGGGUUUUUGGGGUUUUUGGGGUUUUUGGAAAGUAUUAUGUUACGCCGUUCGGAUCUGCAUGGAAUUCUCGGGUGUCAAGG	-0.243
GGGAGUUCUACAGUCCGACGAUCUUUUACAUUUAUACACAUGUAUUGGCUUCCUUUUACACUAUUAGGCGGUCAAGAAGCAGAUCGAGACGGCGGUCACAUUCUAAGUCUAGGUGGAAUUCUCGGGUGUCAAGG	0.335
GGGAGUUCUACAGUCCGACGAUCACCAUGCAGGUGGGCAUCUUUGGGAAGUGGGGCAAAAGGGGGAUAGGGAGGGGGGUAACACUUUGGGAACAGGUGGUCCCAGGUCGUUUCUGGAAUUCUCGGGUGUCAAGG	0.921
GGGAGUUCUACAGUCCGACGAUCGUCCUGUGCUACACAUCGUAUGUACCGAAUCAAAUUUUUUUAAAUUUAAACCCCCAAAAAAGUAUUAUGUUACGCCGUUCGGAUCUGCACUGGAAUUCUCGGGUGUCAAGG	-0.114
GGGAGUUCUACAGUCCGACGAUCCAAGUCCUGUGCUACACAUCGUAUGUACCGAAUCGGGUUUGGGAAAGGGUUUGGGAAAGUAUUAUGUUACGCCGUUCGGAUCUGCACUUCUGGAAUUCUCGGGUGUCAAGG	0.617
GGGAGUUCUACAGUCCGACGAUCUCAAGUCCUGUGCUACACAUCGUAUGUACCGAAUCGGUUUGGGGUUUGGUUUGGAAAGUAUUAUGUUACGCCGUUCGGAUCUGCACUUCCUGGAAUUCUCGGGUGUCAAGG	-0.417
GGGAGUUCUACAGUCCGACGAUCCUCAAGUCCUGUGCUACACAUCGUAUGUACCGAAUCGGGGUGGUGGGGUGGGGAAAGUAUUAUGUUACGCCGUUCGGAUCUGCACUUCCAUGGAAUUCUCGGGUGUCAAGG	0.517
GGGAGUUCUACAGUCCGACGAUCUGGGAGGUGGAUUUUGUUUAUUUUUUUAGCUCAUUUCCAGGGGUGGGAAUUUUUUUUUAAUAUGUGUCACGAAUAAAGUUGUUUUUGAAAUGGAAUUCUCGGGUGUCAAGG	0.469

Set 3
Target: CCNF, cyclin fold, Cln2 fusion (human)
Technique: yeast growth competition, sequencing
Sample: yeast
Setting: weak parent motif
Relative to: not given
Direction: higher = stronger binding
Starting sequence: PKN2 docking peptide (human); VSAVQKLDFSDTM
Change	normalised enrichment score
VSAIQKLDFSDTM [V4I]	0.495
VSAVQKRDFSDTM [L7R]	-0.0815
VPAVQKLDFSDTM [S2P]	0.756
VSAVQKLDVSDTM [F9V]	-0.346
VSAVQKPDFSDTM [L7P]	-0.493
VCAVQKLDFSDTM [S2C]	0.295
VSAVQKLDFIDTM [S10I]	0.593
VSADQKLDFSDTM [V4D]	-1.13
VSAVQKLDASDTM [F9A]	0.0821
VSAVQKLDFMDTM [S10M]	0.0945
VSAVQKLDFSDRM [T12R]	0.263

Mixed results
Molecule	target	assay	test system	conditions	scale	endpoint	value
PhoQ, residues 284 288 289 292 302 303 AAQSYM	PhoP, residues 12 14 15 18 19 NMSFL (Escherichia coli, UniProt P23836)	Sort-seq, refers to: YFP reporter	E. coli	PhoQ-PhoP variant library, with: 10 µM Mg2+	relative to: high Mg2+ state, higher = stronger signaling	fold induction	15.8

Repeated from above (set 1):
Change	relative binding score [%]
I79P	-8.04
Y141Q	-13.5
D3E	47.7
